Assay results collected from several papers.
Each line is one published result; not all experiments were run side by side. Values joined by “and” are separate records of one study, mostly repeats; a detail may differ. ± gives the spread as reported.
HLA class I histocompatibility antigen, A alpha chain allele A*01:01: HLA class I histocompatibility antigen, A alpha chain, allele A*01:01 (Homo sapiens, UniProt P04439)
SCRIB PDZ3 domain: Protein scribble homolog, PDZ3 domain (SCRIB, Homo sapiens, UniProt Q14160)
HLA class I histocompatibility antigen, A alpha chain allele A*24:02: HLA class I histocompatibility antigen, A alpha chain, allele A*24:02 (Homo sapiens, UniProt P04439)
HLA class I histocompatibility antigen, A alpha chain allele A*02:01: HLA class I histocompatibility antigen, A alpha chain, allele A*02:01 (Homo sapiens, UniProt P04439)

ITDFGRAKL
binding score (HLA class I histocompatibility antigen, A alpha chain allele A*01:01; conformational ELISA; peptide; concentration not given; relative to: positive control peptide, direction not given): 2%

VMRLQSETSV
binding intensity (human MAGI1-3/6 PDZ construct (MBP fusion); automated holdup; peptide, crude extract; concentration not given, corrected by standard peak, unit not given; relative to: biotin control resin, higher = stronger binding): 0.197

VLQRHTTGKA
Kd (SCRIB PDZ3 domain; binding, fluorescence polarization; peptide, solution; Scribble PDZ3 domain): 100 µM

TVQLIMQLM
binding score (HLA class I histocompatibility antigen, A alpha chain allele A*24:02; conformational ELISA; peptide; concentration not given; relative to: positive control peptide, direction not given): 22.7%

YTNPEFVINV
Kd (SCRIB PDZ3 domain; binding, fluorescence polarization; peptide, solution; Scribble PDZ3 domain): 100 µM

VLRENTSPK
binding (HLA class I histocompatibility antigen, A alpha chain (Homo sapiens, UniProt P04439); peptide-MHC binding, iTopia initial binding; peptide, plate-bound HLA heavy chain; 11 µM, 18 h, 21 °C, HLA-A3 allele; relative to: allele-matched positive control peptide): 34%

11-deoxycorticosterone
rate constant k-4 (human CYP11B2; substrate, stopped-flow kinetics; 4-state closed model, with: adrenodoxin 40-fold excess): 62.6 min⁻¹

SLPDRILDA
relative affinity (HLA class I histocompatibility antigen, A alpha chain allele A*02:01; HLA-A2 stabilization, peptide titration; peptide, T2; 20 h, 37 °C, with: human β2-microglobulin 100 ng/mL; relative to: HIVpol reference peptide, lower is stronger): 9.36

GSGAGIESNV
normalised SPR binding response (human MAGI1-2/6 PDZ construct (MBP fusion); surface plasmon resonance; peptide; concentration not given; higher = stronger binding): 0 normalised RU

RPAR
relative binding strength (neuropilin-1 b1b2 domain; T7 phage binding; peptide; concentration not given; relative to: control G7 phage): 1

MANT-ADP
binding (Mitochondrial dynamics protein MID49 (Mief2, Mus musculus, UniProt Q5NCS9); ligand; 300 nM, mouse protein, varied concentration): no binding

ITQLMPFGSLL
binding score (HLA class I histocompatibility antigen, A alpha chain allele A*24:02; conformational ELISA; peptide; concentration not given; relative to: positive control peptide, direction not given): 5.5%

methyl-β-cyclodextrin
glycine uptake rate (Sodium- and chloride-dependent glycine transporter 1 (SLC6A9, Homo sapiens, UniProt P48067); transport activity, [3H]glycine uptake; 2.5 mg/mL, 1 min, with: glycine 150 µM; higher = more transport): 37.9 a.u. and 50.6 a.u. and 39.3 a.u. and 50.1 a.u. and 38.8 a.u.

LMPFGSLLDYV
half-life of peptide-HLA complex (HLA class I histocompatibility antigen, A alpha chain allele A*02:01; complex stability, off-rate; peptide; 37 °C): 89.1 h

colistin
MIC (Enterobacter cloacae; broth microdilution; clinical isolate RKI-No_506/15): 1 mg/L

CTIL
kcat (Protein farnesyltransferase (Rattus norvegicus, UniProt Q02293+Q04631); peptide farnesylation, substrate; peptide; pH 7.5, 25 °C, Protein farnesyltransferase 50 to 100 nM, with: C15-Alk 4 µM): 0.13 ± 0.01 s⁻¹

6-carboxyfluorescein
uptake (Solute carrier organic anion transporter family member 2A1 (SLCO2A1, Homo sapiens, UniProt Q92959, E465K); compound uptake, substrate; HEK293F expressing SLCO2A1 E465K; 50 µM; relative to: wild type): 8.73% and 8.25% and 9.69%

TVQLIMQLMPF
binding score (HLA class I histocompatibility antigen, A alpha chain allele A*01:01; conformational ELISA; peptide; concentration not given; relative to: positive control peptide, direction not given): 1.9%

BzATP
normalized current (P2X purinoceptor 7 (P2rx7, Rattus norvegicus, UniProt Q64663, I214A/Q143A/R125A); ion current, agonist, two-electrode voltage clamp; Xenopus oocytes; 11 µM): 0.0131 and 0 and 0.0198

Excerpt of the above:
VLQRHTTGKA
Kd (SCRIB PDZ3 domain; binding, fluorescence polarization; peptide, solution; Scribble PDZ3 domain): 100 µM
